Measured values of several laboratories.
Each numbered part is a random draw from the data of one study; scales do not carry over between parts. Changes are numbered by the printed parent chain.

Set 1 — technique: EMSA with sequencing; molecule type: double-stranded DNA, one strand shown; matrix: in vitro; concentration: 10 and 20 nM; reference: negative control set to 0; direction: higher = stronger binding
Target: Hepatocyte nuclear factor 3-alpha (Foxa1, Mus musculus, UniProt P35582, residues 1-468, full length assumed)
Setting: whole designed probe, mean of two concentrations, ends assumed
Shared flanks, not repeated: GTGAGCGGTGCCCATTGATGGGGAAC … TTTCACTGGGATCGTGGGGAC
Residues (chain): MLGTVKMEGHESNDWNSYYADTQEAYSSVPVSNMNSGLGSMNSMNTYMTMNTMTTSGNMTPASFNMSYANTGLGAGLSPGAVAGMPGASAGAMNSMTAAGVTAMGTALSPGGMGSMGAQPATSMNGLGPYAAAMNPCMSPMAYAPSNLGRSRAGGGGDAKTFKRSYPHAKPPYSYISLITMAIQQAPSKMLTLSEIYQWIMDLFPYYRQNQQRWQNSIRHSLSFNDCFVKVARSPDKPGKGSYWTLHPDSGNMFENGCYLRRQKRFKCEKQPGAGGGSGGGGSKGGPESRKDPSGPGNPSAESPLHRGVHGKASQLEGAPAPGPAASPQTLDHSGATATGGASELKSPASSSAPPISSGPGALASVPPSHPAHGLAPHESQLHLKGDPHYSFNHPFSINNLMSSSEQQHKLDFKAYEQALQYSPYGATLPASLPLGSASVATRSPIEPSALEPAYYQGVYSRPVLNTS
Sequence	normalised bound fraction [ratio]
AGTGCTTCATTTTTCGTGCCCGCCCCGCGCCCCGGGCAGGCCAGTCATGTGTTAAGTTGCGCTTCTTTGCTGTGATGTGGGTGGGGGAGGAAGAGTAATCTCAGTGCTGGCTCGGCTGCCCTGAGGGTGCTCAATCAAGCACAGGTTTCAAGTCTGGGTTCTGGTGTCCACTCACCCACCCCACCCCCCAAAA	-0.0519
ATCTTCCCCCTCTTCCTTGCCCCACCAGCTCACCTTCCCGGGTTATTTGCAGATAGTATTTATTTTCAAGCCGGCATTCGTTAACCCTCTTCTGGCGCAAACTGCACATTGGTCTGGATGAATCATGGTCCTTTGGCGACGCCAGGCTCCGGGAGAGCAAAGCACCGTGTCAGGGCCATGATCCGGGGTGGCC	0.172
ATCTTCCCCCTCTTCCTTGCCCCACCAGCTCACCTTCCCGGGTTATTTGCAGATAGGAAAATAAATAAAGCCGGCATTCGTTAACCCTCTTCACGCGCATACTGCCAGAGCAAACAGATCTAACGATGAATCATGGCGACGCCAGGCTCCGGGAGAGCAAAGCACCGTGTCAGGGCCATGATCCGGGGTGGCC	0.396
ATCTTCCCCCTCTTCCTTGCCCCACCAGCTCACCTTCCCGGGTTATTTGCAGATAGGAAAATAAATAAAGCCGGCATTCGTTAACCCTCTTCAGATGAATCATGCTGTTTGCTCTGGATCTAACATGGTCCTTTGGCGACGCCAGGCTCCGGGAGAGCAAAGCACCGTGTCAGGGCCATGATCCGGGGTGGCC	0.358
TGTTCCAGCAGGTTGATGGAGCATAGGGGCTTCAAAGGAACCGGTGATGCAGTCATGCTGTGGCTGGAGTTTACGAAAGGCTGACTCACCAAAGGTCATCTGAGACATTTACACAAACATCCTGACCCCAAGTCCAGTGCTCTTTCTAATCTATAACAGGGTTCTTCCTTTTTTTCTTTTTCTTTCACTTTTT	0.00443
TTGCAGGCTGCAGTGATGTCCTTCATATCACGTCATCTTAGTGCCACTTCATCTTTATTGGCATGTGTGGGAGGAACAAAACCCCAGTGGTATGCAAACACCGTCATGGGGACTTGCTTCAAGCCATGGGAAGTTTCACGCAAAGCCAGTTTCTCAGTAGGGCAAATGTTGTGTAAAAGTACAAGAAGTTTGA	0.149
TATCTTCTCCCCATTTATTAATTCACATATTTACATCAGCTTGGAGTTATTGATTTCTATTTTATTAAATAGTTTATAATTGATTACCATCCTTATTTATTTTAATGCTCAAATTGTCCCAAATTATGGCCAAAGAAAGCTCCTTCAAACTGGTTGCTATGTCCTTTTGACATGGCCCATCATTCTTTAAACA	0.256
CTCCAGGGTAGTTGTCCTTCCTGTGGCTGCTCACTGATCCAGGCTACTTTGATCTTGTGACTCAAAGTTCAACAAAATGTGGATGCGTCATTTTATTTACACTTCAATGGCCAGAAGGCCCTTACGAAATTCATCCAGTTGCAAGAAGTTTGGGAAATGTAGCCTTCCATATTTACAGGAATAAATGAAAAAC	0.376

Set 2 — technique: DHFR PCA, deep sequencing; matrix: yeast; together with: (+)-ABA 17 µM; reference: wild-type fitted maximum; direction: higher = stronger binding
Target: ABI1, truncated, D143A, DHFR fusion (Arabidopsis thaliana)
Setting: methotrexate growth selection, single substitutions
Starting sequence: PYL1, truncated, DHFR fusion (Arabidopsis thaliana); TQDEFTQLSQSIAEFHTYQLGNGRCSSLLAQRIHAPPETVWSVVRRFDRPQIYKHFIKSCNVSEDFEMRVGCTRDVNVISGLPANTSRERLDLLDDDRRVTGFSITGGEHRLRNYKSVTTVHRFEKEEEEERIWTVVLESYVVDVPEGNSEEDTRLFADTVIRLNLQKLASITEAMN; partner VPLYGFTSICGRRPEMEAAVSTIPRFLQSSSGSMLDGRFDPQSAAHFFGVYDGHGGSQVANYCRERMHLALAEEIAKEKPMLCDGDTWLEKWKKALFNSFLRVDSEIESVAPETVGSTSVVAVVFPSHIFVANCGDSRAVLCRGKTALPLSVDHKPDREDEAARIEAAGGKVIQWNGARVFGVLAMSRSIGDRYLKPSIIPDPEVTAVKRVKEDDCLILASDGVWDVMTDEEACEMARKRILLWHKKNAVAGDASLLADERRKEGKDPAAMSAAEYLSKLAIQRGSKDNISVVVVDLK
Change	relative binding score [%]
S117Y	-23.6
S63Y	57.5
E129I	78.5
F5H	77.1
D65R	71.1
T1N	85.1
E152F	67.5
T135N	6.03
Q2T	77
S63G	88.2
E151W	59.1
D3F	74.2
F157N	-21
E38R	36.3
V43L	75.9
I79K	69.6

Set 3 — target: CCNB1, cyclin fold, Cln2 fusion (human); technique: yeast growth competition, sequencing; matrix: yeast; setting: weak parent motif; reference: not given; direction: higher = stronger binding
Starting sequence: PPP1R3F docking peptide (human); VAPRRVLFADEAL
Change	normalised enrichment score
VAPRKVLLADEAL [R5K F8L]	0.185
VAARRVLFADEAL [P3A]	-0.0267
AAPRRVLFADEAL [V1A]	0.623
VAPRRVAFADEAL [L7A]	0.677
VAPRRVLFADAAL [E11A]	0.346
VAPARVLFADEAL [R4A]	0.592
VAPRAVAFADEAL [R5A L7A]	-0.14
VAPRKVLFADEAL [R5K]	0.397

Set 4 — technique: RNA Bind-n-Seq; molecule type: RNA; matrix: in vitro; concentration: 1 µM; setting: whole 134-nt RNA, ends assumed; together with: 150 mM KCl; reference: input library; direction: higher = stronger binding
Target: Ras GTPase-activating protein-binding protein 1, RRM domain (G3BP1, Homo sapiens, UniProt Q13283)
UniProt Q13283, sequence (whole entry, looked up): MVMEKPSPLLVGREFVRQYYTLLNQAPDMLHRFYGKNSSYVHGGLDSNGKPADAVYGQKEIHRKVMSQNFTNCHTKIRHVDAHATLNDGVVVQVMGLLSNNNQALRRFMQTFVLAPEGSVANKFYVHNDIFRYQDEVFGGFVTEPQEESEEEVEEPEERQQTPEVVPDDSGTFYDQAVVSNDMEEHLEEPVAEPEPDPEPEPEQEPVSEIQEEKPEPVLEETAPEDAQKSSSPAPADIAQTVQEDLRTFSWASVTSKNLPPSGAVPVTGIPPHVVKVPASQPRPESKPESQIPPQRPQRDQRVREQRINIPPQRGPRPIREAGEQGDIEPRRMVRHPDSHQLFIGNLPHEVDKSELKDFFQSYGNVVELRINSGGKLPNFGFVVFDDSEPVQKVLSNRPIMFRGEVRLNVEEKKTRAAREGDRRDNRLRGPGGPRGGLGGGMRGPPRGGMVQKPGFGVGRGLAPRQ
Shared flanks, not repeated: GGGAGUUCUACAGUCCGACGAUC … UGGAAUUCUCGGGUGUCAAGG
Sequence	log2 enrichment
GUCCUGUGCUACACAUCGUAUGUACCGAAUCGGAAAAAAAGGAAAAAAAGGAAAAAGGAAAGUAUUAUGUUACGCCGUUCGGAUCUGCAC	0.0756
ACCAUGCAGGUGGGCAUCUUUGGGUAGUGGGGCAAGGGGGGGAUAGGGAGGGGGGUAACACUUUGGGAACAGGUGGUCCCAGGUCGUUUC	-0.574
UCAAGUCCUGUGCUACACAUCGUAUGUACCGAAUCGGAGGUUUGGAAAAAAAGGAAAGUAUUAUGUUACGCCGUUCGGAUCUGCACUUCC	-0.184
CUCAAGUCCUGUGCUACACAUCGUAUGUACCGAAUCGGGUUGGUUGGGGUUGGAAAGUAUUAUGUUACGCCGUUCGGAUCUGCACUUCCA	-0.206
AUGGAUGACCCCUCUGUGGGCCCCAAGAUCCCCCAGGCUUUGGAGAAGAUCCUGCAGCUGAAGGAGAGCCGCCAGGAAGAGAUGAAUUCU	-0.487
CAAGUCCUGUGCUACACAUCGUAUGUACCGAAUCGGAAAAAAAGGUUUUUGGUGGAAAGUAUUAUGUUACGCCGUUCGGAUCUGCACUUC	-0.215
UCCUGUGCUACACAUCGUAUGUACCGAAUCGGGUUUUUUGGUUUUUUGGGUUUUUUGGGAAAGUAUUAUGUUACGCCGUUCGGAUCUGCA	-0.111
AGUCCUGUGCUACACAUCGUAUGUACCGAAUCGGAAAGGAAAAAAAGGAAAAAAAGGAAAGUAUUAUGUUACGCCGUUCGGAUCUGCACU	0.0208
UCCUGUGCUACACAUCGUAUGUACCGAAUCGGGGAAAGGGGAAAGGGGAAAAAAAGGGGAAAGUAUUAUGUUACGCCGUUCGGAUCUGCA	0.623
UGGGAGGUGGAUUUUGUUUAUUUUUUUAGCUCAUUUCCAGGGGUGGGAAUUUUUUUCUAAUAUGUGUCAUGAAUAAAGUUGUUUUUGAAA	1.15
CCUCAAGUCCUGUGCUACACAUCGUAUGUACCGAAUCGGGUGGUGGGGUGGGAAAGUAUUAUGUUACGCCGUUCGGAUCUGCACUUCCAG	0.259
CCUGUGCUACACAUCGUAUGUACCGAAUCGGCCCCCCCGGGGCCCCCCCGGGCCCCCCCGGAAAGUAUUAUGUUACGCCGUUCGGAUCUG	-0.616
CAAGUCCUGUGCUACACAUCGUAUGUACCGAAUCGGUGGAAAAAAAGGAAAAAGGAAAGUAUUAUGUUACGCCGUUCGGAUCUGCACUUC	-0.023
GCAGGAAGUAAAAACAAAUGGAAAUGCUUCGGAUAGUGGCAGGGCUGGGGGUUGCUAAGGAAAGGGUGGGAUGGGAGUGGGUAAAGAGUU	1.33

Set 5 — target: CEBPD, bZIP domain (human); technique: DHFR protein complementation; matrix: yeast; reference: wild-type JUN-FOS pair; direction: higher = stronger binding
Setting: single substitutions, most at no-binding floor
Starting sequence: JUN, bZIP domain (human); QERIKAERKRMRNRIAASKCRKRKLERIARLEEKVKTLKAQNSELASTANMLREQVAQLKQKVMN; partner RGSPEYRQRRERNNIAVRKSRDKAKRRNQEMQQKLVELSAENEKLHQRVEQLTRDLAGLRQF
Change	binding fitness [natural log]
K34W	-1.34
E54Y	-1.52
E54V	-1.46
E44V	-1.35
L45Y	-1.49
K39D	-1.39
L52K	-1.57
K36M	-1.34
A57P	-1.52
Q41S	-1.48
A40Q	-1.23
A40K	-1.1
R30K	-1.31
A49Y	-1.39
S43A	-1.24
A49S	-1.42
Q55S	-1.43

Some of these lines once more (set 5):
Change	binding fitness [natural log]
E54Y	-1.52
E54V	-1.46
E44V	-1.35
L45Y	-1.49
K39D	-1.39
L52K	-1.57
K36M	-1.34
A57P	-1.52
Q41S	-1.48
A40Q	-1.23
